Earlier results as cited in several papers.
Numbers after ± are the reported error.
Sequence of UniProt P23975 (whole entry, looked up): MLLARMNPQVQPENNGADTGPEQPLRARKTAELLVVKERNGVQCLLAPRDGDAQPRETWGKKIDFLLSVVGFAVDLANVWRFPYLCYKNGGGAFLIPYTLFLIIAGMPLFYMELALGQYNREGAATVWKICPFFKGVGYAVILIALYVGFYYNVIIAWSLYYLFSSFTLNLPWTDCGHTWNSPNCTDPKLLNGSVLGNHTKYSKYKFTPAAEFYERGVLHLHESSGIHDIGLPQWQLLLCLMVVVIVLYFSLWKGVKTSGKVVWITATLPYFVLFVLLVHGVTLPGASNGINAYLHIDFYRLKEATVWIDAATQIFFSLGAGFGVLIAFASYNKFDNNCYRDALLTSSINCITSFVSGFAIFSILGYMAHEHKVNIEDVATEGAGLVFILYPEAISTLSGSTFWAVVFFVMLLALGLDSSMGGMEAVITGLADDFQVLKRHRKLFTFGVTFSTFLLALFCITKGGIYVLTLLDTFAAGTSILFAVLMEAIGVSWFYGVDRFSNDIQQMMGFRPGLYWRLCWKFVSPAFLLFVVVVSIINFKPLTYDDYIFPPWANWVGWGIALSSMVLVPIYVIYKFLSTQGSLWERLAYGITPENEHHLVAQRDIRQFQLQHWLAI

SMILES	target or system	test	test system	conditions	how to read	quantity	value
COC(=O)C1(CCCCl)C=C(C(=O)OC(C)(C)C)C(=O)CC1 (stereo not drawn)		GSH adduct formation	PBS	pH 7.4, 37 °C, with: GSH 10 mM		rate constant	0.089 min⁻¹
N#Cc1ccnc(N2C(=O)CC[C@H]2C(=O)N(c2cncc(F)c2)[C@H](C(=O)NC2CC(F)(F)C2)c2ccccc2Cl)c1			relapsed/refractory mIDH1 AML patients	dose not given, trial, interim		median complete response duration	9.3 months
c1ccc2c(c1)CCCNC2c1c[nH]c2ncccc12 (stereo not drawn)	Escherichia coli	efflux pump inhibition	AG100 AcrAB-TolC expressing	50 µM	baseline: untreated cells	relative fluorescence index	0.12
CCCCCCCCCCCCCCCC(=O)N[C@@H](CCC(=O)NCCCC[C@H](NC(=O)[C@H](CC(=O)O)NC(=O)[C@H](CO)NC(=O)[C@@H](NC(=O)[C@H](Cc1ccccc1)NC(=O)[C@@H](NC(=O)CNC(=O)[C@H](CCC(N)=O)NC(=O)[C@H](CO)NC(=O)[C@@H](N)Cc1c[nH]cn1)[C@@H](C)O)[C@@H](C)O)C(=O)N[C@@H](CO)C(=O)N[C@@H](CCC(=O)O)C(=O)N[C@@H](Cc1ccc(O)cc1)C(=O)N[C@@H](CC(C)C)C(=O)N[C@@H](CC(=O)O)C(=O)N[C@@H](CO)C(=O)N[C@@H](CCC(=O)O)C(=O)N[C@@H](CCCNC(=N)N)C(=O)N[C@@H](C)C(=O)N[C@@H](CCCNC(=N)N)C(=O)N[C@@H](CC(=O)O)C(=O)N[C@@H](Cc1ccccc1)C(=O)N[C@H](C(=O)N[C@@H](C)C(=O)N[C@@H](Cc1c[nH]c2ccccc12)C(=O)N[C@@H](CC(C)C)C(=O)N[C@@H](CCC(=O)O)C(=O)N[C@@H](C)C(=O)NCC(=O)NCC(=O)O)C(C)C)C(=O)O			type 2 diabetes CKD patients	50 to 300 µg	baseline: placebo	body weight reduction	3.41 kg
COc1ccc(Nc2nc(Nc3ccc(OCC[18F])cc3)ncc2Br)cc1			S180 tumour-bearing mice	intravenous, 30 min	baseline: tumour over bone	tumour to tissue ratio	0.98
CC[C@H](C)[C@H](NC(=O)[C@H](CC(C)C)NC(=O)[C@H](Cc1c[nH]cn1)NC(=O)[C@H](Cc1c[nH]cn1)NC(=O)[C@H](CC(C)C)NC(=O)[C@H](Cc1c[nH]c2ccccc12)NC(=O)[C@H](Cc1ccccc1)NC(=O)[C@H](CCCNC(=N)N)NC(=O)[C@H](CCCNC(=N)N)NC(=O)[C@H](CCCNC(=N)N)NC(=O)[C@H](CC(C)C)NC(=O)[C@H](CC(=O)O)NC(=O)[C@H](CCC(N)=O)NC(=O)[C@@H](NC(=O)[C@H](CO)NC(=O)[C@H](CCCCN)NC(=O)[C@@H](Cc1c[nH]c2ccccc12)NC(=O)[C@H](CC(C)C)NC(=O)[C@H](CC(=O)O)NC(=O)[C@H](Cc1c[nH]cn1)NC(=O)[C@H](CC(C)C)NC(=O)[C@@H](N)CC(C)C)[C@@H](C)CC)C(=O)N[C@@H](C)C(=O)N[C@@H](CCC(=O)O)C(=O)N[C@H](C(=O)N[C@@H](Cc1c[nH]cn1)C(=O)N[C@H](C(=O)N[C@@H](C)C(=O)N[C@@H](CCC(=O)O)C(=O)N[C@@H](Cc1ccc(O)cc1)C(N)=O)[C@@H](C)O)[C@@H](C)CC			mouse	1000 nmol/kg daily, twice daily injection, P7		serum phosphate level	decreased
c1ccc2c(c1)CCCNC2c1c[nH]c2ccccc12 (stereo not drawn)	COLO 205	cytotoxicity				IC50	97.9 µM
COC1=C(C)OC(C)C1=O (stereo not drawn)			human, water			odour detection threshold	56 µg/kg
Cc1sc(-c2ccc(C(F)(F)F)cc2)nc1-c1nn[nH]c1C#N			ZDF rat	4 mg/kg/day, 6 weeks		HbA1c change from baseline	2.88 ± 0.21%
COc1ccc2c(c1)CN(C(=O)CCN1CCC(Cc3ccccc3)CC1)CC[S+]2[O-] (stereo not drawn)			dog AF model	dose not given	baseline: animals	AF conversion	100%
O=c1ccc(OCCCN2CCCCC2)nn1-c1ccc(Cl)c(Cl)c1	SLC6A2 (Homo sapiens, UniProt P23975)			1.0 µM		inhibition	31.9 ± 0.4%
C=Cc1c(C)c2cc3nc(c(CC(=O)[O-])c4[n-]c(cc5nc(cc1[n-]2)C(C)=C5CC)c(C)c4C(=O)[O-])C(CCC(=O)[O-])C3C.[Cu+2].[Na+].[Na+].[Na+] (stereo not drawn)			patients with pelvic malignancies	oral, dose not given		patients with cystitis prevented	> 80%

Repeated from above:
SMILES	target or system	test	test system	conditions	how to read	quantity	value
COc1ccc(Nc2nc(Nc3ccc(OCC[18F])cc3)ncc2Br)cc1			S180 tumour-bearing mice	intravenous, 30 min	baseline: tumour over bone	tumour to tissue ratio	0.98
CCCCCCCCCCCCCCCC(=O)N[C@@H](CCC(=O)NCCCC[C@H](NC(=O)[C@H](CC(=O)O)NC(=O)[C@H](CO)NC(=O)[C@@H](NC(=O)[C@H](Cc1ccccc1)NC(=O)[C@@H](NC(=O)CNC(=O)[C@H](CCC(N)=O)NC(=O)[C@H](CO)NC(=O)[C@@H](N)Cc1c[nH]cn1)[C@@H](C)O)[C@@H](C)O)C(=O)N[C@@H](CO)C(=O)N[C@@H](CCC(=O)O)C(=O)N[C@@H](Cc1ccc(O)cc1)C(=O)N[C@@H](CC(C)C)C(=O)N[C@@H](CC(=O)O)C(=O)N[C@@H](CO)C(=O)N[C@@H](CCC(=O)O)C(=O)N[C@@H](CCCNC(=N)N)C(=O)N[C@@H](C)C(=O)N[C@@H](CCCNC(=N)N)C(=O)N[C@@H](CC(=O)O)C(=O)N[C@@H](Cc1ccccc1)C(=O)N[C@H](C(=O)N[C@@H](C)C(=O)N[C@@H](Cc1c[nH]c2ccccc12)C(=O)N[C@@H](CC(C)C)C(=O)N[C@@H](CCC(=O)O)C(=O)N[C@@H](C)C(=O)NCC(=O)NCC(=O)O)C(C)C)C(=O)O			type 2 diabetes CKD patients	50 to 300 µg	baseline: placebo	body weight reduction	3.41 kg
